Assay results from different studies.
Every numbered part comes from another study and shows a few of its results, in no order.

Set 1
Target: Prothrombin, mature alpha-thrombin (F2, Homo sapiens, UniProt P00734)
Method: aptamer microarray, sandwich
Form: DNA with 2'F-ANA
Matrix: in vitro
Tested at: 200 nM
Notes: whole 15-mer aptamer, many near background
With: Cy3 exosite-II aptamer, 400 nM
Reading: higher = stronger binding
Quantity: mean fluorescence intensity
Oligonucleotide: GGTTGGTGTGGTTGG
2'F-ANA at 2 3 5 7 9 10 11 12: 65.5 a.u.
2'F-ANA at 1 3 6 7 12: 505 a.u.
2'F-ANA at 2 3 5 7 8 11 12 13 14: 59 a.u.
2'F-ANA at 9 13 14 15: 171 a.u.
2'F-ANA at 1 3 5 6 8 11 12: 110 a.u.
2'F-ANA at 2 3 6 7 10 11 12 13: 338 a.u.
2'F-ANA at 2 3 4 6 7 8 11 13 14 15: 302 a.u.
2'F-ANA at 2 6 8 9 10 12 13 14: 80.8 a.u.
2'F-ANA at 5 6 9 11 13 14: 53.9 a.u.
2'F-ANA at 1 3 4 5 6 7 8 9 10 11 15: 82.4 a.u.
2'F-ANA at 1 2 3 4 6 7 8 9 11 13: 141 a.u.
2'F-ANA at 2 4 7 11 12 14 15: 172 a.u.
2'F-ANA at 2 4 7 9 10 11 13 15: 69.9 a.u.
2'F-ANA at 2 3 5 6 7 8 11 12: 194 a.u.
2'F-ANA at 5 6 9 10 11: 47.1 a.u.
2'F-ANA at 1 2 3 4 7 8 9 11 12 13 14: 70.9 a.u.
2'F-ANA at 1 4 5 7 9 10 11 12 13: 77.4 a.u.
2'F-ANA at 1 4 6 7 8 11 14 15: 58.4 a.u.
2'F-ANA at 6 7 9 12 13: 516 a.u.
2'F-ANA at 1 2 3 5 6 7 8 10 11 12 15: 49.5 a.u.
2'F-ANA at 4 5 9 10 11 13: 45 a.u.
2'F-ANA at 1 2 3 5 7 10 12: 49 a.u.
2'F-ANA at 1 3 4 6 7 10 13: 68.1 a.u.

Set 2
Target: RNA binding protein fox-1 homolog 2, RRM domain, GST-SBP tag (RBFOX2, Homo sapiens, UniProt O43251-10, residues 100-194)
Method: RNA Bind-n-Seq
Form: RNA
Matrix: in vitro
Tested at: 365 nM
Notes: natural RNA segment, single round, ends assumed
Reference: no-protein control
Reading: higher = stronger binding
Quantity: RBNS enrichment (R)
Residues (chain): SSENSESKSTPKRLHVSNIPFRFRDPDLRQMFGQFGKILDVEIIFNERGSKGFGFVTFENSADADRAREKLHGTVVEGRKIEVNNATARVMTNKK
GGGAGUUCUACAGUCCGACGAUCCAUACAGGAGCCUCGGUUUUUCAGCAAAACGCGGCCAGUCCCCUUCUCCACUGCUGCCUCCCAGCAGAGGGCCCCAGGAUCUCCAAGGUCCCAGCUAUGGCUUUGGACAAUGGAAUUCUCGGGUGCCAA: 0.173
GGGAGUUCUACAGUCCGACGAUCAAUCCCCUACUGGGGCCAUUUCAAUGGGGUAGUUUUUGGAUUUUUUUCCCCACUCACUUUUUAUUUUUUAAUGAUAAUGGAGAUGUCUGGACCCUUCCUCACCCCACCUGUGGAAUUCUCGGGUGCCAA: 0.501
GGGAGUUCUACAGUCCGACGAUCAAGACCCUUUGCAAACCCUGAACUGGGCUACGGGAAAAUAACACGAAUACUGAUAAGGACACAACUAUGUGUGCCCAUUCAGAUCAAAGUACUUGUUAGGGAAAAAAAAAUGGAAUUCUCGGGUGCCAA: 0.327
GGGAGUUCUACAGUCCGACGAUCUCCUGUUAUAGAGGAGGCUACGUAGACCAAAAUGAGAAAAGGAAUGUGGCCACAGAAUGUAACCGUCCAGUUUCUGCCUUUCACUUUCUUGGGGGUUGCUUGUGAAAUUAUGGAAUUCUCGGGUGCCAA: 2.42
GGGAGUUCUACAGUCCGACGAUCCAGUCAUUUACCCAACUUACUCUAGAAAUGUCCACAGCUAAGGAAGGCUCCUGAGCCAGUCAGGCGGAGUUCAAGUGAUAUCUUGGGACAGUGACCAUGGUCUGCAUUACUGGAAUUCUCGGGUGCCAA: 0.316
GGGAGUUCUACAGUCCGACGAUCGGGGCCAGAGAGGCGGCUCAGGUUGCCCAGCUCUGUGGCCUCAGGACUCUCUGCCUCACCCGCUUCAGCCCAGGGCCCCUGGAGACUGAUCCCCUCUGAGUCCUCUGCCCUGGAAUUCUCGGGUGCCAA: 0.223
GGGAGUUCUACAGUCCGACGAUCCACCAUGUGGGGAGCGGGAGCAGGACUACUGUGCCCUUGGCCUGACGUGUGGGGAGAGAGGAGCAUGGCCAGUUCCCUGCAGGCUCUGGAAAGCAUGGGCCAUUGUCACCUGGAAUUCUCGGGUGCCAA: 2.49
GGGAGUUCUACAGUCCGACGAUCUUCUGUCACUGUCAGUUAUUUAAUGAGUGUUUUUUCAGGGUCUGUUUUAAGAUCAUUAUUUGAUAGCUGUAGCAUGAAGCAGAGGUUGAUGAUGCCCAUAAUUGCAAGACUGGAAUUCUCGGGUGCCAA: 4.18
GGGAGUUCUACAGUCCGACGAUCAGAGCUUCUAUUUGGGUUAAAACAUCCACUCACUUGGUUAGGAGCUAUGCCUCAGAAACUUCCUGGGAGUAAAUAUGGGAACAACUUUUCUAUUAAUACAUCUAAAUUUUUGGAAUUCUCGGGUGCCAA: 0.432
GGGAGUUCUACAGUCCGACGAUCAUCCCAGCACCAGUCUGCUUGAGCCCUGCACUCACUGCUCGGGAAUGGCAAGCUCCCAGAUUCCUUCCAGGAAAGUCAACUGUGUCUUAAGGCUUUGCGGCCUGCGCAGAUGGAAUUCUCGGGUGCCAA: 0.64
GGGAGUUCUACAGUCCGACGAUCCCUGGAACAGAAAUUGUUUAUAGAGACUACACUAAUUAUUUUAACUGUAUACAUCUGUUUAAUUUGAACACACUACAUCGUAGGGUGACUGAUUUUUGAAGUAUACCACAUGGAAUUCUCGGGUGCCAA: 0.363
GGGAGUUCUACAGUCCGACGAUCGUAAUCUCAUCAGGUUGGGACAUUAAUCUUUUCAACUCCUUGUAAGAUUUCCCAGUUUGGUUUCUCUACAUGUCCUGCAGCUGCCCCACUUCUCCUUUACGCUGUGUAGAUGGAAUUCUCGGGUGCCAA: 0.314

Set 3
Target: Histone acetyltransferase KAT6A, winged helix 1, GST fusion (KAT6A, Homo sapiens, UniProt Q92794, residues 1-85)
Method: protein binding microarray
Form: double-stranded DNA, one strand shown
Matrix: in vitro
Tested at: not given
Notes: 8-mer, flanks averaged, mean of 2 arrays, mostly near background
Reference: not given
Reading: higher = stronger binding
Quantity: E-score
Construct (chain): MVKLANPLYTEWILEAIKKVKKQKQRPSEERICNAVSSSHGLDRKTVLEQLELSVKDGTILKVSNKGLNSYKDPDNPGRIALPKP
CACGGCTC: 0.308
CCCCTCCG: -0.0271
CACCGTGG: -0.0011
GTGACAAA: -0.139
AAACAGCG: 0.0587
ATACTTCA: -0.229
CGCCTGAC: 0.163
ATAAATTC: -0.198
GATGTAGA: -0.0315
CGACTACC: 0.00471
CGGTGAAA: 0.15
ATTGCCAG: -0.168
ACCCTCCT: -0.115
CGTGGGTA: 0.0852
AATCGCGA: 0.145
GTCGTCTA: 0.118

Set 4
Target: Sal-like protein 4, full length isoform A (SALL4, Homo sapiens, UniProt Q9UJQ4, residues 1-1053)
UniProt Q9UJQ4, sequence (whole entry, looked up): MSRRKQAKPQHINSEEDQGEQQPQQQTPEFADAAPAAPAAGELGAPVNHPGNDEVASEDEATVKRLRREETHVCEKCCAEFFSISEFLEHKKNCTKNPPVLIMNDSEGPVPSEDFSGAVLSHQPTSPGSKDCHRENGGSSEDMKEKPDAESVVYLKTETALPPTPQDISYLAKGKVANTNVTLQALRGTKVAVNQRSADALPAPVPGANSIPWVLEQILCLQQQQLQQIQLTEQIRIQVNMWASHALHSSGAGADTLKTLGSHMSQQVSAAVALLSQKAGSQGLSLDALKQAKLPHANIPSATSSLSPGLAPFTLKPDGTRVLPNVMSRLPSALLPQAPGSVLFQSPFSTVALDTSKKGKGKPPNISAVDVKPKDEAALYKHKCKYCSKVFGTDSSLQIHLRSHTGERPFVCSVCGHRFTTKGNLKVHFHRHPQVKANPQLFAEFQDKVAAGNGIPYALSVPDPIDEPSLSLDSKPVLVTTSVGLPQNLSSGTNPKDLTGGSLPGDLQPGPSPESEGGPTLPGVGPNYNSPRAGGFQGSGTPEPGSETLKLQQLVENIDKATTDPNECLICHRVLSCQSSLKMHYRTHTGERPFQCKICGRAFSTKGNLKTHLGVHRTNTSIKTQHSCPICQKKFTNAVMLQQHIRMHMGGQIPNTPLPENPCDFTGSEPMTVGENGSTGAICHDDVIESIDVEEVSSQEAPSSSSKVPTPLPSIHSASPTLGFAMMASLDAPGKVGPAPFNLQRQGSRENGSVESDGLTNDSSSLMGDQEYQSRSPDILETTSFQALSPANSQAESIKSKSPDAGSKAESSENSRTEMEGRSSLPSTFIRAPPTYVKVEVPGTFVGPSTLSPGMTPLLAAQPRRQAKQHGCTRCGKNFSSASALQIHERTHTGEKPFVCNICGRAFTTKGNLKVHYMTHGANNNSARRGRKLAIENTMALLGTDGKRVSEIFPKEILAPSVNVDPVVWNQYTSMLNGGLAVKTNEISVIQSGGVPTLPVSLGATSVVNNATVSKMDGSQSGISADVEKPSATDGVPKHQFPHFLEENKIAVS
Method: universal PBM
Form: double-stranded DNA, one strand shown
Matrix: in vitro
Tested at: 600 nM
Notes: 8-mer, flanks averaged, mean of replicates
Reading: higher = stronger binding
Quantity: E-score
AAACAATG: 0.216
GAGAGAAC: -0.158
ACTGTGAT: 0.0799
CGTTCATA: 0.208
ATACCCAT: 0.142
CAGTAAGG: -0.0161
CAGCCTTC: -0.24
CTCCGGAA: -0.0825
TAACGTGA: 0.157
GGAAAATA: 0.36
AAACAGAC: 0.0833
ACTGTTAC: 0.0844
CCGAACAA: 0.117
GCGACAAC: -0.132
CGTTTCGC: -0.205
ACCACACA: 0.0433
ATGTTTGA: 0.184
AACGCCGG: -0.304
GACGATGC: -0.162
AAGGATCC: -0.289
AGATCATC: 0.0992
GCATTAGC: -0.0533
TGTGCACA: 0.0885
CACATAGC: -0.121
AGAGCCAG: -0.264

Single results of other studies
PhoQ, residues 284 288 289 292 302 303 SSLVEF — fold induction (PhoP, residues 12 14 15 18 19 NMSSL (Escherichia coli, UniProt P23836); Sort-seq, measured: YFP reporter; E. coli; PhoQ-PhoP variant library, with: 10 µM Mg2+; reference: high Mg2+ state, higher = stronger signaling): 6.1

Repeated from above (set 4):
AGAGCCAG: -0.264
CGTTCATA: 0.208
ATGTTTGA: 0.184
CCGAACAA: 0.117
CTCCGGAA: -0.0825
TGTGCACA: 0.0885
GAGAGAAC: -0.158
AAGGATCC: -0.289
AAACAATG: 0.216
AAACAGAC: 0.0833
ACTGTGAT: 0.0799
GGAAAATA: 0.36
